Assay results from different studies.
Parts stem from different laboratories: compare values within a part only. Positions count from the first letter of the parent shown.

Sample 1
Target: RING finger protein unkempt homolog, zinc fingers 1-6, GST-SBP tag (UNK, Homo sapiens, UniProt Q9C0B0, residues 30-357)
Sequence of UniProt Q9C0B0 (30-357, looked up): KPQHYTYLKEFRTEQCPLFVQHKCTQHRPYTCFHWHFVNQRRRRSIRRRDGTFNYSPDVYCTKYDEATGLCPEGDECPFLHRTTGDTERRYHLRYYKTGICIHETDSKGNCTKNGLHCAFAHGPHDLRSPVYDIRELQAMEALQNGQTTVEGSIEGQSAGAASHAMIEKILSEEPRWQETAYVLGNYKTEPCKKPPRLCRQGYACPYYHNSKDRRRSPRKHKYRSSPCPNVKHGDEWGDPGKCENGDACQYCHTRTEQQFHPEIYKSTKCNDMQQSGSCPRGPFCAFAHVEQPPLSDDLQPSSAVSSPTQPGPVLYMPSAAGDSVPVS
Method: RNA Bind-n-Seq
Molecule type: RNA
Sample: in vitro
Concentration: not given
Notes: RNA with constant flanks, human and mouse sites, ends assumed
Baseline: input RNA pool
Reading: higher = stronger binding
| Sequence | bound/input enrichment |
| --- | --- |
| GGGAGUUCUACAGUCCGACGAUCAAACUCAAACAGACGUUGACUUUCUUUGAUGAGCUUCAUAAUGUUGGCAGAGAUCAUGGGACUAGUGAUUUUAGGGAGAGUUUAGUAUCCCUGGUUCAGAACUCCAGAAAACUACAGAACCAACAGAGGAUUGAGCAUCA | 0.198 ratio |
| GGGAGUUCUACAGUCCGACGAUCCUCACCUUCCUCCGAAUGUCCACGCACAAGGAAUCCAAAGACCACUUCAUUUCUCCAUCUGCAUUUGGAGAAAUCCUCUACAACAACUUCCUCUUUGACAUCCCGAAGAUCCUGGACCUCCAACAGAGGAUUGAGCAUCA | 0.208 ratio |
| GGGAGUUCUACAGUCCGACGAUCGACAUGUUCCUGGAAGCUCUGGGAUACACUUGGCAUGAUACUUGCUUUGUGUGCUCUGUGUGUUGUGAAAGUUUGGAAGGGCAGACAUUUUUCUCCAAGAAGGACAAGCCACUUUGCAAACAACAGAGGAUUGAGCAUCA | 0.228 ratio |
| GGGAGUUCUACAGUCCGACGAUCGUGGCAGUAGAUUCUACAGGCACGUACAUGGCCACCUCUGGCCUAGACCACCAGCUGAAGAUCUUUGACUUGCGAGGGACGUACCAGCCUCUGAGCACUCGGACCCUGCCCCAUGGAGCACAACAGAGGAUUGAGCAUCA | 0.126 ratio |
| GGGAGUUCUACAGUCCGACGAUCAAGGCGCGGAUAAAAGCAAAGGCAAUAGCGAUAAACACAUUUUUGCCAAAGAAUGGAUUUAGACCUCUGGACAUGAACCUUUAUACCCAGCAGCGCUAUGCUACAUCGUUUUACUUACCUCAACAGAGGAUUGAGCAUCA | 0.212 ratio |
| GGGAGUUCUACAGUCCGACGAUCGCAGAUGCUGAGGUUGCCAGGAGGAAAUCAGUCCCAUCAGAGGCUAUGCUUGCAGAGAGUAGUACCAGUUUGCCACCUGUCGCUGAUGAAAGCCCAGUCACUGUAAAACCAGAUAGUCAACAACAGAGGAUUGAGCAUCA | 0.164 ratio |
| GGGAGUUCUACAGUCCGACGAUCGCCACAUUUGCUAUUUCCAUCCUGCAACAGUUGGAGAUUGAGUUCAAGGAGACCCAAGCACUAGUAUUGGCCCCCACCAGAGAACUGGCUCAACAGAUCCAAAAGGUAAUUCUGGCACUUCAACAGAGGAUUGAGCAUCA | 0.163 ratio |
| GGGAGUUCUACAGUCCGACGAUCUCACAAGAUCUUUCAGCAGCACCCGCUGAACAGUAUCUUCAGGAGAAGCUGCCAGAUGAAGUAGUUUUAAAAAUAUUUUCUUAUUUGCUGGAACAAGACCUUUGUAGAGCUGCUUGCGUGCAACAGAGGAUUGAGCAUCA | 4.86 ratio |
| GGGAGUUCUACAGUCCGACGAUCUAUAUGACUGAUGGGAUGUUACUUCGUGAAGCUAUGAAUGAUCCCCUCCUGGAGCGUUAUGGUGUAAUAAUUCUUGAUGAGGCUCAUGAGAGGACACUGGCUACAGAUAUUCUAAUGGGUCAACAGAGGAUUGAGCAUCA | 0.108 ratio |

Sample 2
Target: Prothrombin, mature alpha-thrombin (F2, Homo sapiens, UniProt P00734)
Method: aptamer microarray, sandwich
Molecule type: DNA with 2'F-ANA
Sample: in vitro
Concentration: 200 nM
Notes: whole 15-mer aptamer, many near background
With: Cy3 exosite-II aptamer, 400 nM
Reading: higher = stronger binding
Sequence: GGTTGGTGTGGTTGG
| Modification | mean fluorescence intensity |
| --- | --- |
| 2'F-ANA at 3 5 7 12 13 14 | 64.1 a.u. |
| 2'F-ANA at 5 7 8 9 10 12 15 | 115 a.u. |
| 2'F-ANA at 2 5 6 8 9 11 13 14 15 | 46.9 a.u. |
| 2'F-ANA at 1 2 3 4 5 6 7 8 9 11 12 14 15 | 54.2 a.u. |
| 2'F-ANA at 1 2 3 6 11 12 | 303 a.u. |
| 2'F-ANA at 1 2 4 5 6 7 9 10 11 12 13 14 | 50.4 a.u. |

Sample 3
Target: CCND2, cyclin fold, Cln2 fusion (human)
Method: yeast growth competition, sequencing
Sample: yeast
Notes: weak parent motif
Baseline: not given
Reading: higher = stronger binding
Starting sequence: PKMYT1 docking peptide (human); SFEPRNLLSLFED; partner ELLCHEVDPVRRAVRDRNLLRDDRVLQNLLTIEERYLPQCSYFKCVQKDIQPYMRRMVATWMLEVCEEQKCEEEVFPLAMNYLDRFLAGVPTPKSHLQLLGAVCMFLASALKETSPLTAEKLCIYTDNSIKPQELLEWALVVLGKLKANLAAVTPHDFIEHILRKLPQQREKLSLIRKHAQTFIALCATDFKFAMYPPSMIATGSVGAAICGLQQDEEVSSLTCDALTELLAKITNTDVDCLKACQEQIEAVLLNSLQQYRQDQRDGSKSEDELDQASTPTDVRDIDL
| Change | normalised enrichment score |
| --- | --- |
| SFEPRNLLSLGED [F11G] | 0.104 |
| QFEPRNLLSLFED [S1Q] | 0.063 |
| SFEPRNLLSLRED [F11R] | -0.0997 |
| SFEPRNLLSLSED [F11S] | 0.154 |
| SFEPRNLLSGFED [L10G] | 0.349 |
| SFEPRNLLSNFED [L10N] | 0.393 |
| SFEPANLLSLFED [R5A] | 0.248 |
| SFEPRNALSLFED [L7A] | 0.162 |

Further values, each from its own experiment
| Molecule | target | assay | test system | conditions | scale | measurement | result |
| --- | --- | --- | --- | --- | --- | --- | --- |
| PhoQ, residues 284 288 289 292 302 303 SSCCRF | PhoP, residues 12 14 15 18 19 LHSVW (Escherichia coli, UniProt P23836) | Sort-seq, item: YFP reporter | E. coli | PhoQ-PhoP variant library, with: 10 µM Mg2+ | baseline: high Mg2+ state, higher = stronger signaling | fold induction | 2.75 |

A few entries again (sample 1):
| Sequence | bound/input enrichment |
| --- | --- |
| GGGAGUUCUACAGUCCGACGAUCCUCACCUUCCUCCGAAUGUCCACGCACAAGGAAUCCAAAGACCACUUCAUUUCUCCAUCUGCAUUUGGAGAAAUCCUCUACAACAACUUCCUCUUUGACAUCCCGAAGAUCCUGGACCUCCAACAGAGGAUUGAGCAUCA | 0.208 ratio |
